# Results from different studies.
# Parts stem from different laboratories: compare values within a part only.

# Study 1
# Target: RNA binding protein fox-1 homolog 2, RRM domain, GST-SBP tag (RBFOX2, Homo sapiens, UniProt O43251-10, residues 100-194)
# Technique: RNA Bind-n-Seq
# Molecule type: RNA
# Matrix: in vitro
# Concentration: 365 nM
# Setting: natural RNA segment, single round, ends assumed
# Relative to: no-protein control
# Reading: higher = stronger binding
# Residues (chain): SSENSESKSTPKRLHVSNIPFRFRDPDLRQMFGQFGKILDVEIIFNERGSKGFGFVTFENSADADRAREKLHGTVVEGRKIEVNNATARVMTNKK
Sequence,RBNS enrichment (R)
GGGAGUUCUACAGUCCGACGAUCAAGGAGAUGACCGGAAGCAACCCCUUCACAGACACGAGCACAUCGGCAAACCCUAUGAAAGUGGAAUUUUCUAACAAAAUAAACUUGCUUGUUUGAUCUGUUUUCUGUAAUGGAAUUCUCGGGUGCCAA,0.377
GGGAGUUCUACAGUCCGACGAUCAUGGCGAUGUUAACAAUUCUGCAUUUAGACAAGGUUUUGCAAAAGAUAUUGUGUUAGAAAAAUUUGAAACUAAAAGCUUCCCAAACAAAAUGGGAAACCUUACAGGACAUUGGAAUUCUCGGGUGCCAA,0.476
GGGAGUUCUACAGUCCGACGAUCGGCAAGGUCAGAAAGAGACGGCGCUUCAGAGUUUCCUUUCCAGACACCCCUCCCCGCACUGUGAAGUUCCCCUGACCGCCCUCCUGGUUCACAAAGAGCAUUAAGAAAGCUGGAAUUCUCGGGUGCCAA,0.424
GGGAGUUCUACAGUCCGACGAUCCAAGCUAGAGAUUUUCAAAGCUACCCUUUUGAGUAAAACCCCUUAUUAAAAGAGAAACCAUGACUGGGUUUUUGUUUGUUCCUUGUCUUUGGGAGUAGUGCAGGCCUUUUUGGAAUUCUCGGGUGCCAA,0.74
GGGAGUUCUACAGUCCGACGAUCCUUGUGACCUCUGUCCACAGUCAUUUGAAGGAAGGAUUUCCUUUGGUUUUAGCUAUGCUUAUGAAAUUGAGAAACAAUUGCAAUGUUAAGAGUUUAUGUGAAGUAUACAUUGGAAUUCUCGGGUGCCAA,1.41
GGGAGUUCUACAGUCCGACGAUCUGUUUGAGAAAUUAUUUUUUUACAGAUCUUUAUAAAAAAUAAACAUCUUUUGAUUGCUUGGAUUUAGGAAUUCAGUUUUUGUUUUAAUGACCAAUGUCAAGUUUCAGGUUUGGAAUUCUCGGGUGCCAA,1.79
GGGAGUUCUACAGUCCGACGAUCGCAGGACAGUACGAUUUGGGGAGAACCCAGCUCCCCACUUUAUCUGCAGACUCUGGGACCUGACAAAACAGUCAGAGCCUGAGUGCACUGCAGCCUGAACUCCCUUGAGCUGGAAUUCUCGGGUGCCAA,0.326
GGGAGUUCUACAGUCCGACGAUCCUGGACUUGUCCAAUUAAUGAAGUUGAUUCAUAUUGCAUCAUAGUUUGCUUUGUUUAAGCAUCACAUUAAAGUUAAACUGUAUUUUAUGUUAUUUAUAGCUGUAGGUUUUUGGAAUUCUCGGGUGCCAA,8.65
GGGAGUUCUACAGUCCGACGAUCGCCCAGCUCUGCAGGAGUCUGAGAAGGAAUUCUGGGGCUACCACCUUAGGAACGAAAUUGUGCCCAGCCAGAAAGAAUGCUGGCUCAUAAUAGAUUCUUACCCAAUGCCAUGGAAUUCUCGGGUGCCAA,1.32
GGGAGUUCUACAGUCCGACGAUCAACAUUUUUUUUCAUUCCAGACUAACCAGAACCUGCAUUUAGAAUAGGAGUCCUUUCUCCGACCUUUUCUUCAGUUCCACAGCGAAGCCUCUGUGCUCCUUUUAUACUUGUGGAAUUCUCGGGUGCCAA,0.606
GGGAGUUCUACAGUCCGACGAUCUCCCUGAGGUGAGGUUCAGGUUUAUGUCCCUGUCUGUGGCAUAGAUACAUCUCAGUGACCCAGGGUGGGAGGGCUAUCAGGGUGCAUGGCCCGGGACACGGGCACUCUUCUGGAAUUCUCGGGUGCCAA,14.5
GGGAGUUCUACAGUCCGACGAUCGAUUUGAAUACAUUUUUCUGGAACUAUUCAUAAUAUGAAGUUUUCCUAGAACCACUGAGUUUCUAGUUUAAUAGUUUGCUAUGCAAAUGACCACCUAAAACAAUACUUUAUGGAAUUCUCGGGUGCCAA,0.661

# Study 2
# Target: Phosphate system positive regulatory protein PHO4, full length, GST-tagged (PHO4, Saccharomyces cerevisiae, UniProt P07270, residues 1-312)
# Technique: competition protein-binding microarray
# Molecule type: double-stranded DNA, one strand shown
# Matrix: in vitro
# Concentration: 2 µM
# Setting: whole 60-bp probe, lowest competitor level
# Together with: Cbf1 competitor, 0.05 µM
# Reading: higher = stronger binding
# Target sequence (chain): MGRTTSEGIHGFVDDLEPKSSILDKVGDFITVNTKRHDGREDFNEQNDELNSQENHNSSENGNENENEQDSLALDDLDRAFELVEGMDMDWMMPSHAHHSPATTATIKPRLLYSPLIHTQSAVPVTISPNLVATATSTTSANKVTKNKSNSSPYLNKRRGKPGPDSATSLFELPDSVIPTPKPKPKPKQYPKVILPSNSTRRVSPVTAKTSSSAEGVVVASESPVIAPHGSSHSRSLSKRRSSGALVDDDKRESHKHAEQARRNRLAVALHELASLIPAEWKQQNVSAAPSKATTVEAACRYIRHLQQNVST
Sequence,fluorescence intensity
AGCTGGCAGAACCTCCATGTGCTCCAGGTCTCTGATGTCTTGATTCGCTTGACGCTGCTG,10800 a.u.
CTTTCCCGATCTTGAGATGTGGGTGTAGCACATTTGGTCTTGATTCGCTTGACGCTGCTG,4890 a.u.
GCACAGAAGCCCCATCACGTGACAAACAAGTGCTTCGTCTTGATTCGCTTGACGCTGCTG,12000 a.u.
GGGCCAAGCGAGAGTCACGTGCTTTACAGGCCTGCCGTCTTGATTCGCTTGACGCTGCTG,15100 a.u.
CATACCCAACCTTGCCCAGTGGGTGAAGATATTTGTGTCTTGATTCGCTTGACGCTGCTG,4250 a.u.
CGGAGAGGACCTACCCACGTGCCAGAATTGTTTCAAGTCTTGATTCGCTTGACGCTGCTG,17800 a.u.
ACTGTTAAGAACCGTCACGTCTTCCTTTGGCTTTGAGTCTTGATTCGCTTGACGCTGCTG,5330 a.u.
CGGGGTTAAGTTTGCGGGGTGGGTGGCTTGCAGCAGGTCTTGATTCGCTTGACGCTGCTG,5470 a.u.
AGCTTCCGAGACTTTTTCGTGATGGGAGATAGATGCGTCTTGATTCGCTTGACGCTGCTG,3520 a.u.
CCGCGCAAAGCAGGCACCGTGCCGATATCTTTCTTTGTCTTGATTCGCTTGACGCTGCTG,8510 a.u.
ACTCAGGTTATCAAGTTCGTGCAAACTATTCAAGAAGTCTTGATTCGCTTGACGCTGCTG,6020 a.u.
CCTTGGTCTGTAGAGCACATGGCATTTCCAGGTCTCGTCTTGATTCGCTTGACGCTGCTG,10700 a.u.
TAATAGCTTGAAAAGCACGTGAAGGGCTTGAAGCGGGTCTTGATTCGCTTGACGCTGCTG,15400 a.u.
CGCCTAAGGAAAGAGCCCGTGAAATCATCAACAAGTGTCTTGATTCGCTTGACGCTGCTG,4310 a.u.
CTAACGAAGGTTTGTCACCATACTTACAAGCCAAGTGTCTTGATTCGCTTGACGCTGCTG,3800 a.u.
ACCGGTTTTCTCGTCCACGTGAACGGTGTCAACACCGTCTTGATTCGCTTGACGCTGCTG,13100 a.u.

# Study 3
# Target: Prothrombin, mature alpha-thrombin (F2, Homo sapiens, UniProt P00734)
# Technique: aptamer microarray, sandwich
# Molecule type: DNA with 2'F-ANA
# Matrix: in vitro
# Concentration: 200 nM
# Setting: whole 15-mer aptamer, many near background
# Together with: Cy3 exosite-II aptamer, 400 nM
# Reading: higher = stronger binding
# Sequence: GGTTGGTGTGGTTGG
Modification,mean fluorescence intensity
2'F-ANA at 3 6 7 8 9 10 12 15,575 a.u.
2'F-ANA at 1 2 3 5 7 12 15,121 a.u.
2'F-ANA at 1 6 7 8 11 14,58.1 a.u.
2'F-ANA at 2 3 6 7 8 11 13 14 15,331 a.u.
2'F-ANA at 1 3 6 8 10 11 12 14,63.9 a.u.
2'F-ANA at 3 4 6 7 8 9 11 12 15,775 a.u.
2'F-ANA at 3 4 9 10 11 12 13 14,200 a.u.
2'F-ANA at 2 4 5 7 15,71.2 a.u.
2'F-ANA at 2 3 6 8 10 13 14 15,235 a.u.
2'F-ANA at 4 6 7 8 9 10 11 13 14,62.9 a.u.
2'F-ANA at 3 4 5 7 9 10 12 15,53.8 a.u.
2'F-ANA at 1 2 3 4 6 7 11 12 13 14,60.7 a.u.
2'F-ANA at 1 2 5 7 12 14 15,43 a.u.
2'F-ANA at 3 4 7 8 10 13 14,219 a.u.

# Study 4
# Target: Ras GTPase-activating protein-binding protein 1, full length (G3BP1, Homo sapiens, UniProt Q13283)
# Chain of UniProt Q13283 (whole entry, looked up): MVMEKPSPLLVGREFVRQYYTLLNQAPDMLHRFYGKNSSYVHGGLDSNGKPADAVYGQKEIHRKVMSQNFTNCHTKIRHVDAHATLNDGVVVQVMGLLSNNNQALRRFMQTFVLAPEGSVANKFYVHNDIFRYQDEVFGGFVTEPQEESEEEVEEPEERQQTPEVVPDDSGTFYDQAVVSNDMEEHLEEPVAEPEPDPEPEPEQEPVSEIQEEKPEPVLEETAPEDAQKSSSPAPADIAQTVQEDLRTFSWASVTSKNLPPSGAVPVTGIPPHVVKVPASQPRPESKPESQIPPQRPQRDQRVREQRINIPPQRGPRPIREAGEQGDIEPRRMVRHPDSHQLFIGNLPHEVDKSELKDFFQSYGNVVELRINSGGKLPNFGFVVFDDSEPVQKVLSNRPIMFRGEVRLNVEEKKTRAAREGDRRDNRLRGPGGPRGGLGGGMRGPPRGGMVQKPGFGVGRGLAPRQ
# Technique: RNA Bind-n-Seq
# Molecule type: RNA
# Matrix: in vitro
# Concentration: 200 nM
# Setting: whole 134-nt RNA, ends assumed
# Together with: 150 mM LiCl
# Relative to: input library
# Reading: higher = stronger binding
# All molecules: 7-deaza-guanosine replaces G
Sequence,log2 enrichment
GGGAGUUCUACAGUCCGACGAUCGUCCUGUGCUACACAUCGUAUGUACCGAAUCGGAAAAAAGGAAAAAAGGAAAAAAGGGAAAGUAUUAUGUUACGCCGUUCGGAUCUGCACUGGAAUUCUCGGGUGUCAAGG,-0.79
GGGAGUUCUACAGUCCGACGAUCCUCAAGUCCUGUGCUACACAUCGUAUGUACCGAAUCGGAAAGGAGGUUUUUGGAAAGUAUUAUGUUACGCCGUUCGGAUCUGCACUUCCAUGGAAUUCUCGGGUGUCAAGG,0.0614
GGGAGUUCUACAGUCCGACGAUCAGUCCUGUGCUACACAUCGUAUGUACCGAAUCGGGGUGGGGUUUUUUUGGGGUGGGGAAAGUAUUAUGUUACGCCGUUCGGAUCUGCACUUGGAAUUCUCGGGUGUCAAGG,0.449
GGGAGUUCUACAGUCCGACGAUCCCUCAAGUCCUGUGCUACACAUCGUAUGUACCGAAUCGGAGGGAGGGGAGGGGAAAGUAUUAUGUUACGCCGUUCGGAUCUGCACUUCCAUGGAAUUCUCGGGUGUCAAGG,-0.23
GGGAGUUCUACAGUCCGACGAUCCACAGACAACACGCACCCACACAGACACAGAGGGAAGGGGUUGGGAUGGGGACAGGGUGCACAGAAGGGCGGGGUAGGACCCCAGCCCCUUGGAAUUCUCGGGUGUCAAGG,0.0152
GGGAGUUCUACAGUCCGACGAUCCACAGACAACACGCACCCACACAGACACAGAGGGAAGGGGUUGGGAUGGGGACAGGGUGCACAGCGGGGCGGGGUAGGACCCCAGCCCCUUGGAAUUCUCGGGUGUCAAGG,-0.211
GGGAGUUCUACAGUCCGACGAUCACCAUGCAGGUGGGCAUCUUUGGGAAGUGGGGCAAGGGGGCGAUAGGGAGGGGGGUAACACUUUGGGAACAGGUGGUCCCAGGUCGUUUCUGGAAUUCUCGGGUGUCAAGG,0.00676
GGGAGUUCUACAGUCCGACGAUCGCUGUUGGAGUGGAUCCGCCGCACAAUCCCGUGGCUGGAGAACCGGGUGCCCGAGAACACCAUGCAUGCCAUGCAACAGAAGCUGGAGGAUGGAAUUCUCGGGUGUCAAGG,-4.1
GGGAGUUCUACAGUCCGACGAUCCCCUGUGGGCCUUGCUCAGAGCGGAGAAAGCAUUUGUUUGUACAAGAUCCGCAGACGUGUAAAUGUUCCUGCAAAAACACAGACUCGCGUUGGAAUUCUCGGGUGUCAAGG,-0.956
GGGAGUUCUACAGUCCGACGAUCCAAGUCCUGUGCUACACAUCGUAUGUACCGAAUCGGGUUUUGGUUUUGGGUUUUGGAAAGUAUUAUGUUACGCCGUUCGGAUCUGCACUUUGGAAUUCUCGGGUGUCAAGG,-1.07
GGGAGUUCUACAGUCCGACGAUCGCAGGAAGUAAAAACAAAUGGAAAUGCUUCGGAUAGUGGCAGGGGUGGGGGUUGCUAAGGAAAGGAAAGGAUGGGAGUGGGUAAAGAGUUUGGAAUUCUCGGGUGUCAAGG,0.252

# A few entries again (study 4):
Sequence,log2 enrichment
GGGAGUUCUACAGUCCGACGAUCCCCUGUGGGCCUUGCUCAGAGCGGAGAAAGCAUUUGUUUGUACAAGAUCCGCAGACGUGUAAAUGUUCCUGCAAAAACACAGACUCGCGUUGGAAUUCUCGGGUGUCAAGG,-0.956
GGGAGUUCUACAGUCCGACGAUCCAAGUCCUGUGCUACACAUCGUAUGUACCGAAUCGGGUUUUGGUUUUGGGUUUUGGAAAGUAUUAUGUUACGCCGUUCGGAUCUGCACUUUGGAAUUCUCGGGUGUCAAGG,-1.07
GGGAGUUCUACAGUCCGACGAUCGCAGGAAGUAAAAACAAAUGGAAAUGCUUCGGAUAGUGGCAGGGGUGGGGGUUGCUAAGGAAAGGAAAGGAUGGGAGUGGGUAAAGAGUUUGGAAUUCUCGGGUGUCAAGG,0.252
